{"data": "Experimental data pooled from the literature", "RPA1 N-terminal domain": "Replication protein A 70 kDa DNA-binding subunit, N-terminal domain (RPA1, Homo sapiens, UniProt P27694)", "CD27": "CD27 antigen (CD27, Homo sapiens, UniProt P26842)", "VSIR": "V-type immunoglobulin domain-containing suppressor of T-cell activation (VSIR, Homo sapiens, UniProt Q9H7M9)", "BTLA": "B- and T-lymphocyte attenuator (BTLA, Homo sapiens, UniProt Q7Z6A9)", "note": "Several values in a cell are separate wells, animals, samples, runs or records. Numbers after ± are the reported error."}
{"Compound": "Nc1ncnc2c1c(-c1ccc(C(=O)Nc3cc(C(F)(F)F)ccn3)cc1)nn2[C@@H]1CCCN(C(=O)C2CC2)C1", "target": "Tyrosine-protein kinase BTK, non-phosphorylated (BTK, Homo sapiens, UniProt Q06187)", "assay": "TR-FRET binding kinetics", "conditions": "37 °C, unphosphorylated enzyme", "Kd": "0.0013 µM and ~0.001 µM"}
{"Compound": "CC(=O)N[C@H]1[C@@H](O[C@H](C)[C@H](N)C(=O)O)O[C@H](CO)[C@H](O)[C@@H]1O[C@@H]1O[C@H](CO)[C@H](O)[C@H](O)[C@H]1O", "target": "CLEC10A, carbohydrate recognition domain (Homo sapiens, UniProt Q8IUN9)", "assay": "binding, ITC", "conditions": "293 K", "Kd": "5960 µM"}
{"Compound": "Cc1ccc(C(=O)Nc2ccccc2C(=O)O)cc1S(=O)(=O)NC1CCOCC1", "target": "RPA1 N-terminal domain", "assay": "binding, fluorescence polarisation competition", "conditions": "with: FITC-ATRIP probe", "Kd": "> 250 µM"}
{"Compound": "O=C1Nc2ccc(F)cc2C1=O", "target": "PARK7 (Homo sapiens, UniProt Q99497)", "assay": "binding, ITC", "conditions": "25 °C, 5% DMSO", "Kd": "0.93 ± 0.05 µM"}
{"Compound": "Cc1ccc(C(=O)Nc2cccc(C)c2C(=O)O)cc1S(=O)(=O)Nc1cccc(Cl)c1", "target": "RPA1 N-terminal domain", "assay": "binding, fluorescence polarisation competition", "conditions": "with: FITC-ATRIP probe", "Kd": "134 ± 1 µM"}
{"Compound": "COCCN(CCOC)Cc1c(O)ccc2c1O/C(=C\\c1cn(C)c3ccccc13)C2=O", "target": "CD27", "assay": "binding, microscale thermophoresis", "Kd": "1.46 µM"}
{"Compound": "Cc1ccc(C(=O)Nc2cc(Cl)ccc2C(=O)O)cc1S(=O)(=O)Nc1ccc(Br)cc1", "target": "RPA1 N-terminal domain", "assay": "binding, fluorescence polarisation competition", "conditions": "with: FITC-ATRIP probe", "Kd": "25 ± 2 µM"}
{"Compound": "O=S(=O)(O)c1cccc(-n2nc3ccc4cc(S(=O)(=O)O)ccc4c3n2)c1", "target": "UBC, ubiquitin (Homo sapiens, UniProt P0CG48)", "assay": "binding, NMR titration", "Kd": "595 µM"}
{"Compound": "Cc1noc(C)c1-c1ccc2nc(-c3cnn(CC(C)(C)O)c3)nc(N3CCOC[C@@H]3c3ccccc3)c2c1 (single isomer, unassigned)", "target": "CREBBP (Homo sapiens, UniProt Q92793)", "assay": "BROMOscan competition binding", "Kd": "0.26 µM"}
{"Compound": "O[C@@H]1[C@H](O)[C@@H]2C[C@@H]2[C@H]1n1cnc2c(NCc3cccc([125I])c3)nc(Cl)nc21", "target": "Adenosine receptor A3 (Mus musculus, UniProt Q61618)", "assay": "binding, saturation binding", "system": "HEK293 cell membranes", "conditions": "2 h, room temperature", "Kd": "0.0049 ± 0.00077 µM"}
{"Compound": "Cc1ccc(C(=O)Nc2ccccc2C(=O)O)cc1S(=O)(=O)Nc1cccc(-c2ccc(Cl)c(Cl)c2)c1", "target": "RPA1 N-terminal domain", "assay": "binding, fluorescence polarisation competition", "conditions": "with: FITC-ATRIP probe", "Kd": "4 ± 0.5 µM"}
{"Compound": "CN(C(=O)CSc1nnc(Nc2ccccc2F)s1)c1ccccc1", "target": "CD28 (Homo sapiens, UniProt P10747)", "assay": "binding, microscale thermophoresis", "Kd": "30.5 ± 4.8 µM"}
{"Compound": "Cc1ccc(C(=O)Nc2ccccc2C(=O)O)cc1S(=O)(=O)NCc1ccccc1", "target": "RPA1 N-terminal domain", "assay": "binding, fluorescence polarisation competition", "conditions": "with: FITC-ATRIP probe", "Kd": "> 250 µM"}
{"Compound": "NS(=O)(=O)c1ccc(Cc2c(-c3ccc(F)c(C#CC4CCCC4)c3)nn(-c3nc(C(=O)O)cs3)c2CC2CC2)cc1F", "target": "LDHA (Homo sapiens, UniProt P00338)", "assay": "binding, SPR", "conditions": "with: NADH", "Kd": "1.9e-05 µM"}
{"Compound": "Nc1nc2c(ncn2COCCNC(=O)CCCCNC(=O)c2cc3cc(Br)ccc3c(Br)c2O)c(=O)[nH]1", "target": "Deoxynucleoside triphosphate triphosphohydrolase SAMHD1, A1 site (SAMHD1, Homo sapiens, UniProt Q9Y3Z3)", "assay": "binding at allosteric site A1, fluorescence anisotropy competition", "conditions": "1 µM protein", "Kd": "5 ± 2 µM"}
{"Compound": "Cc1ccc(C(=O)Nc2ccccc2C(=O)O)cc1S(=O)(=O)NCC1CCCCC1", "target": "RPA1 N-terminal domain", "assay": "binding, fluorescence polarisation competition", "conditions": "with: FITC-ATRIP probe", "Kd": "126 ± 1 µM"}
{"Compound": "Cc1cccc(N=Nc2ccc(N)nc2N)c1C", "target": "DNA repair protein REV1, C-terminal domain (Homo sapiens, UniProt Q9UBZ9)", "assay": "microscale thermophoresis", "conditions": "cis-trans isomer mixture, with: labelled DNA repair protein REV1 20 nM", "Kd": "32 ± 20 µM"}
{"Compound": "CC(=O)Nc1ncc(CN2CC[C@H](Oc3cccc(F)n3)C[C@@H]2C)s1 [isotope labelled]", "target": "Protein O-GlcNAcase (OGA, Homo sapiens, UniProt O60502)", "assay": "saturation binding", "system": "human hippocampus homogenate", "conditions": "radiolabelled compound", "Kd": "0.0026 ± 0.0007 µM"}
{"Compound": "COc1ccc(NC(=O)c2ccc(-n3cnc(NC(=O)C4CC4)c3)cc2)cc1OC", "target": "VSIR", "assay": "microscale thermophoresis", "Kd": "5.62 µM"}
{"Compound": "Cc1ccc(C(=O)Nc2cc(Br)ccc2C(=O)O)cc1S(=O)(=O)Nc1ccc(Br)cc1", "target": "RPA1 N-terminal domain", "assay": "binding, fluorescence polarisation competition", "conditions": "with: FITC-ATRIP probe", "Kd": "18 ± 1.5 µM"}
{"Compound": "CCCCS(=O)(=O)c1nnc(NC(=O)COc2ccccc2OC)s1", "target": "VSIR", "assay": "microscale thermophoresis", "Kd": "4.46 µM"}
{"Compound": "c1ccc(-c2ccccn2)nc1", "target": "prolyl oligopeptidase (Pyrococcus furiosus, UniProt Q51714)", "assay": "binding, luminescence lifetime titration", "system": "water", "conditions": "with or without 0.5% acetonitrile, with: wild-type protein 0 to 300 µM", "Kd": "37 µM and 36.8 µM"}
{"Compound": "Cc1cccc(-c2noc(-c3cn(CC(=O)NCc4ccc5c(c4)OCO5)c4nc(C)ccc4c3=O)n2)c1", "target": "Catenin beta-1, residues 141-305 (CTNNB1, Homo sapiens, UniProt P35222)", "assay": "isothermal titration calorimetry", "conditions": "25 °C", "Kd": "2.12 µM"}
{"Compound": "Cc1cc(NC(=O)Nc2ccc3nc(N4CCOCC4)cc(C)c3c2)ccc1Br", "target": "Cyclin-dependent kinase 8, with cyclin C (CDK8, Homo sapiens, UniProt P49336)", "assay": "binding, reporter displacement", "Kd": "11.4 µM"}
{"Compound": "CC(C)Oc1cc(C#N)ccc1C1=N[C@@H](c2cccc(Cl)c2)[C@@H](c2ccc(Cl)cc2)N1C(=O)N1CCNC(=O)C1", "target": "Protein Mdm4 (MDM4, Homo sapiens, UniProt O15151)", "assay": "isothermal titration calorimetry", "conditions": "298 K", "Kd": "0.6 µM and < 1 µM"}
{"Compound": "O=C(O)CCCOc1ccccc1[C@@H](NS(=O)(=O)c1ccc2[nH]c(=O)ccc2c1)C(=O)N(CC(=O)O)Cc1cccs1", "target": "OGT (Homo sapiens, UniProt O15294)", "assay": "binding, microscale thermophoresis", "conditions": "active site", "Kd": "~0.005 µM"}
{"Compound": "O=C(Cc1n[nH]c(=O)c2ccccc12)N1CCCC(c2nc(-c3cccnc3)no2)C1 (stereo not shown)", "target": "BTLA", "assay": "binding, microscale thermophoresis", "Kd": "7.19 µM"}
{"Compound": "Cc1ccc(C(=O)Nc2cccc(Cl)c2)cc1Nc1nc(-c2cccnc2)nc2c1cnn2C", "target": "EPHA2 (Homo sapiens, UniProt P29317)", "assay": "Kinobeads competition pulldown", "system": "mixed cancer cell lysate", "Kd": "0.129 µM"}
{"Compound": "Cc1n[nH]c(C)c1C(NC(=O)c1cccc2c(C)c(C)[nH]c12)C(=O)O (stereo not shown)", "target": "CD27", "assay": "binding, microscale thermophoresis", "Kd": "9.75 µM"}
{"Compound": "Cc1ccc(C(=O)Nc2ccccc2C(=O)O)cc1S(=O)(=O)Nc1ccc2ccccc2c1", "target": "RPA1 N-terminal domain", "assay": "binding, fluorescence polarisation competition", "conditions": "with: FITC-ATRIP probe", "Kd": "83 ± 8 µM"}
{"Compound": "COc1ccccc1-n1nc(C)nc1C(O)Cc1ccccc1 (stereo not shown)", "target": "BTLA", "assay": "binding, microscale thermophoresis", "Kd": "9.68 µM"}
{"Compound": "Cc1c(Cc2cccc(OC(C)(C)C(=O)O)c2)c2ccc(C(=O)N[C@H](c3cccc(C(C)(C)C)c3)C(F)(F)F)cc2n1CC(C)C", "target": "PPARG (Homo sapiens, UniProt P37231)", "assay": "TR-FRET competitive binding", "Kd": "0.00105 µM"}
{"Compound": "CC(=O)N[C@H]1[C@H](OCCN=[N+]=[N-])O[C@H](CO)[C@@H](O[C@@H]2O[C@H](CO[C@]3(C(=O)O)C[C@H](O)[C@@H](NC(C)=O)[C@H]([C@H](O)[C@H](O)CNS(=O)(=O)c4ccc(-c5csc(C)n5)s4)O3)[C@H](O)[C@H](O)[C@H]2O)[C@@H]1O", "target": "Sialic acid-binding Ig-like lectin 9, V-set domain (SIGLEC9, Homo sapiens, UniProt Q9Y336, C36S)", "conditions": "50 µM protein", "Kd": "13.9 ± 2.3 µM"}
{"Compound": "Cc1cccc(C2NC(=O)c3c(Cl)cccc3N2)c1 (racemic)", "target": "SWI/SNF-related matrix-associated actin-dependent regulator of chromatin subfamily A member 2, L1418Y (SMARCA2, Homo sapiens, UniProt P51531, L1436Y)", "assay": "ITC", "conditions": "mutant", "Kd": "11 ± 2 µM"}
{"note": "Excerpt of the above:"}
{"Compound": "Cc1n[nH]c(C)c1C(NC(=O)c1cccc2c(C)c(C)[nH]c12)C(=O)O (stereo not shown)", "target": "CD27", "assay": "binding, microscale thermophoresis", "Kd": "9.75 µM"}
{"Compound": "Cc1ccc(C(=O)Nc2ccccc2C(=O)O)cc1S(=O)(=O)Nc1ccc2ccccc2c1", "target": "RPA1 N-terminal domain", "assay": "binding, fluorescence polarisation competition", "conditions": "with: FITC-ATRIP probe", "Kd": "83 ± 8 µM"}
{"Compound": "COc1ccccc1-n1nc(C)nc1C(O)Cc1ccccc1 (stereo not shown)", "target": "BTLA", "assay": "binding, microscale thermophoresis", "Kd": "9.68 µM"}
